Measurements from different studies.
Protocols differ between the studies behind these lines.
Organism: Escherichia coli

SMILES	test	system	conditions	MIC
CCCCCCCCCCCC[S+]([O-])CC1OC(OC2C(N)CC(N)C(OC3OC(CN)C(O)CC3N)C2O)C(O)C(N)C1O (mixture of isomers)		TolC, strain R		2.3 µg/mL
CCCCCCCCCCCCCCCC(=O)N[C@@H](CCCCN)C(=O)N[C@@H](CCCCN)C(=O)N[C@@H](CCCCN)C(=O)N[C@@H](CCCCN)C(N)=O	broth microdilution	K12, water pH 7	18 h, 37 °C	16 µg/mL
CC[C@@H](C)[C@@H](NC(=O)[C@@H](C)NC(=O)[C@H](NC(=O)[C@@H](CC(=O)O)NC(=O)[C@@H](CCCCN)NC(=O)[C@@H](CO)NC(=O)[C@H](NC(=O)[C@@H](CC(N)=O)NC(=O)[C@@H](C)NC(=O)[C@H](NC(=O)[C@@H](CCC(=O)O)NC(=O)[C@@H](CCCCN)NC(=O)[C@H](NC(=O)[C@H](NC(=O)[C@@H](Cc1c[nH]cn1)NC(=O)[C@@H](CCCCN)NC(=O)[C@H](NC(=O)[C@@H](CCCCN)NC(=O)[C@@H](CCCCN)NC(=O)[C@H](NC(=O)[C@@H](CC(C)C)NC(=O)[C@@H](CCCCN)NC(=O)[C@@H](CC(N)=O)NC(=O)[C@@H](Cc1ccccc1)NC(=O)[C@@H](CCCNC(=N)N)NC(=O)[C@@H](CCCCN)NC(=O)[C@@H](CCCNC(=N)N)NC(=O)[C@@H](Cc1ccccc1)NC(=O)CN)C(C)C)C(C)C)[C@H](C)O)[C@H](C)CC)[C@H](C)O)C(C)C)C(C)C)C(=O)N[C@@H](C(=O)N[C@H](C)C(=O)NCC(=O)N[C@H](CO)C(=O)NCC(=O)N[C@@H](C(=O)N[C@H](C)C(=O)N[C@@H](C(=O)NCC(=O)N[C@H](C)C(=O)N[C@H](C)C(=O)N[C@H](CCSC)C(N)=O)C(C)C)C(C)C)C(C)C		isolate RKI 131/03, CAMHB		16 µg/mL
C/C(=N/NC(=N)N)c1nnn(-c2ccc(C#Cc3ccsc3)cc2)c1C	broth microdilution	JW55031 tolC mutant		32 µg/mL
CC(C)[C@@H]1NC(=O)[C@@H]2CCCN2C(=O)[C@@H](C)NC(=O)[C@H](CO)NC(=O)[C@H](C)NC(=O)[C@H](C(C)(C)C)NC(=O)[C@H](CCO)NC(=O)[C@H](Cc2c[nH]c3ccccc23)NC(=O)[C@H](CCO)NC(=O)[C@@H](CCN)NC(=O)[C@H](CCC(N)=O)NC(=O)[C@H](CCN)NC(=O)[C@H](Cc2ccc(O)cc2)NC(=O)[C@H]([C@@H](C)O)NC1=O	broth microdilution	mcr-1, colistin-resistant, CAMHB with 0.002% polysorbate-80	16 h, 37 °C	> 64 µg/mL
CC[C@H](C)[C@H](NC(=O)[C@H](CCCCN)NC(=O)[C@H](CCCCN)NC(=O)[C@H](Cc1c[nH]c2ccccc12)NC(=O)[C@H](CC(N)=O)NC(=O)[C@@H](N)C(C)C)C(=O)N[C@@H](CC(C)C)C(=O)NCC(=O)N[C@@H](CCCCN)C(=O)N[C@H](C(=O)N[C@H](C(=O)N[C@@H](CCCCN)C(=O)N[C@H](C(=O)N[C@H](C(=O)N[C@@H](CCCCN)C(N)=O)C(C)C)C(C)C)[C@@H](C)CC)[C@@H](C)CC		ATCC 8937, RPMI medium	24 h, 37 °C	1.9 to 3.7 µM
C[C@@](O)(C(F)F)[C@H](NC(=O)c1ccc(C#CC#CC2CC2)cc1)C(=O)NO	broth microdilution	W3110, CAMHB with 50% mouse plasma		0.125 µg/mL
CC[C@H](C)[C@H](NC(=O)[C@H](CC(C)C)NC(=O)[C@H](CCC(N)=O)NC(=O)[C@H](CO)NC(=O)[C@H](CCCNC(=N)N)NC(=O)[C@@H](N)CO)C(=O)N[C@H](C(=O)N[C@@H](Cc1c[nH]cn1)C(=O)N[C@@H](CCC(N)=O)C(=O)N[C@@H](CCCNC(=N)N)C(=O)N[C@@H](CC(C)C)C(=O)N[C@@H](Cc1ccccc1)C(N)=O)C(C)C	broth microdilution	Mueller Hinton broth		> 400 µg/mL
c1ccc(CCNC2CCCc3c2[nH]c2ccc(C4CCCCC4)cc32)cc1 (stereo not shown)	broth microdilution	O-19592, cation-adjusted MHB		> 128 µg/mL
CC[C@H](C)[C@H](NC(=O)[C@@H](CCCNC(=N)N)NC(=O)[C@H](CCCNC(=N)N)NC(=O)[C@@H]1CCCN1C(=O)[C@H](Cc1c[nH]c2ccccc12)NC(=O)[C@H](CCCNC(=N)N)NC(=O)[C@@H]1CCCN1C(=O)[C@H](CCCNC(=N)N)NC(=O)[C@@H]1CCCN1C(=O)[C@H](CC(C)C)NC(=O)[C@H](Cc1ccc(O)cc1)NC(=O)[C@@H]1CCCN1C(=O)[C@@H]1CCCN1C(=O)[C@H](CCCCN)NC(=O)[C@H](CC(=O)O)NC(=O)[C@@H](N)C(C)C)C(=O)N[C@@H](Cc1ccc(O)cc1)C(=O)N[C@@H](CC(N)=O)C(=O)N[C@H](CCCNC(=N)N)C(N)=O	broth microdilution	BW25113	18 h	4 µg/mL
CC[C@@H](C)[C@@H](NC(=O)[C@@H](C)NC(=O)[C@@H](CCCCN)NC(=O)[C@@H](CC(C)C)NC(=O)[C@@H](C)NC(=O)[C@H](NC(=O)[C@@H](Cc1c[nH]cn1)NC(=O)[C@@H](CC(C)C)NC(=O)[C@H](NC(=O)[C@H](NC(=O)[C@@H](CCCCN)NC(=O)[C@@H](CCCCN)NC(=O)[C@@H](C)NC(=O)[C@@H](CO)NC(=O)[C@@H](CCCCN)NC(=O)[C@@H](Cc1ccccc1)NC(=O)[C@H](NC(=O)[C@@H](CCCCN)NC(=O)[C@@H](CC(C)C)NC(=O)[C@@H](Cc1ccccc1)NC(=O)[C@@H](CO)NC(=O)[C@@H](CCCCN)NC(=O)[C@@H](Cc1c[nH]c2ccccc12)NC(=O)[C@@H](CCCCN)NC(C)=O)[C@H](C)O)[C@H](C)O)C(C)C)[C@H](C)O)C(=O)N[C@H](CO)C(=O)N[C@H](CO)C(N)=O		UB1005	24 h, 37 °C	4 µg/mL
CC[C@H](C)[C@H](NC(=O)[C@H](CCCCN)NC(=O)[C@H](CCCNC(=N)N)NC(=O)[C@@H](NC(=O)[C@H](CC(C)C)NC(=O)[C@H](CCCCN)NC(=O)[C@H](CC(C)C)NC(=O)[C@@H](NC(=O)[C@H](CCCCN)NC(=O)CNC(=O)[C@H](Cc1ccccc1)NC(=O)[C@@H](N)Cc1ccccc1)C(C)C)[C@@H](C)CC)C(=O)N[C@@H](Cc1ccccc1)C(N)=O	broth microdilution	K12		> 100 µM
CC(=O)OCc1cc(-c2nc3ccccc3n(-c3ccc([N+](=O)[O-])cc3[N+](=O)[O-])c2=O)nn1-c1ccccc1	microbial growth	MDR		64.5 µg/mL
Cc1cc(N)c2cc(NC(=O)c3ccc4c(-c5cccc(N)c5)cccc4c3)ccc2n1		hyperporinated ΔtolC		50 µM
CCCCCCSCC1OC(OC2C(N)CC(N)C(OC3OC(CN)C(O)CC3N)C2O)C(O)C(N)C1O (stereo not shown)		BL21(DE3)		> 150 µg/mL
CC1C(=NOCc2cc(-c3ccc(Cl)cc3)no2)C(C)C(c2ccc(Br)cc2)OC1c1ccc(Br)cc1 (stereo not shown)	microbial growth, broth dilution	MTCC443	24 h	12.5 µg/mL
CC(C)C[C@@H]1NC(=O)[C@H](C)NC(=O)[C@H](NC(=O)[C@@H](N)COC(=O)[C@@H](C)NC(=O)[C@@H](CC(C)C)NC(=O)[C@@H](N)Cc2ccccc2)[C@H](C(N)=O)OC(=O)[C@H](CC(C)C)NC1=O		ATCC 10798	TFA salt	> 32 µg/mL
CC[C@H](C)[C@H](NC(=O)[C@H](CCCCN)NC(=O)[C@H](CC(N)=O)NC(=O)[C@H](Cc1c[nH]c2ccccc12)NC(=O)[C@H](Cc1ccccc1)NC(=O)[C@H](CCCCN)NC(=O)[C@H](CCCCNC(=N)N)NC(=O)[C@H](CC(C)C)NC(=O)[C@H](Cc1c[nH]c2ccccc12)NC(=O)[C@H](CCCCN)NC(=O)[C@H](CCCCNC(=N)N)NC(=O)[C@H](CC(C)C)NC(=O)CNC(C)=O)C(=O)N[C@@H](CCCCN)C(=O)N[C@@H](CCCCNC(=N)N)C(N)=O	broth microdilution	ATCC 25922		3.12 µM
CNc1nc(SC)nc2ccccc12	broth microdilution	3		> 64 µM
CCCCCCCCCCCCCCCCCCCC(=O)N[C@@H](CCCCN)C(=O)N[C@@H](CCCCN)C(=O)N[C@@H](CCCCN)C(=O)N[C@@H](CCCCN)C(=O)N[C@@H](CCCCN)C(N)=O	broth microdilution	K12	16-24 h, 37 °C, prepared at pH 7	16 µg/mL
CC(C)[C@H](NC(=O)[C@H](CCCCN)NC(=O)[C@H](CCCNC(=N)N)NC(=O)CNC(=O)[C@H](C)NC(=O)[C@H](CC(N)=O)NC(=O)[C@H](CCCNC(=N)N)NC(=O)[C@@H](NC(=O)[C@H](CCCCN)NC(=O)[C@H](CC(=O)O)NC(=O)[C@@H](NC(=O)[C@@H](NC(=O)[C@H](CCCNC(=N)N)NC(=O)[C@H](CCCNC(=N)N)NC(=O)[C@H](Cc1c[nH]c2ccccc12)NC(=O)[C@H](Cc1c[nH]c2ccccc12)NC(=O)CN)[C@@H](C)O)C(C)C)C(C)C)C(=O)O		ATCC 25922	18 h, 37 °C	> 256 µg/mL
CC[C@H](C)[C@H](NC(=O)[C@H](CO)NC(=O)[C@H](CO)NC(=O)[C@H](Cc1ccccc1)NC(=O)CN)C(=O)N[C@@H](Cc1ccccc1)C(=O)N[C@@H](CCCNC(=N)N)C(N)=O		ATCC 8739	20% FBS	> 128 µM
CCCCCCCCCCCCCCCCCCCCCCSCC1OC(OC2C(N)CC(N)C(OC3OC(CN)C(O)CC3N)C2O)C(O)C(N)C1O (stereo not shown)		MC1061		> 150 µg/mL
Cc1cc(N)c2cc(NC(=O)c3ccc4cc(C(=O)N5CCN(C)CC5)ccc4c3)ccc2n1		ΔtolC efflux-deficient		> 200 µM
CC[C@H](C)[C@H](NC(=O)[C@@H](Cc1ccccc1)NC)C(=O)N[C@@H](CO)C(=O)N[C@H](CCCNC(=N)N)C(=O)N[C@@H](C(=O)N[C@H](C(=O)N[C@@H](CO)C(=O)N[C@H]1C(=O)N[C@@H](C)C(=O)N[C@@H](CC(C)C)C(=O)N[C@@H]([C@@H](C)CC)C(=O)O[C@H]1C)[C@@H](C)CC)[C@@H](C)CC	broth microdilution	ATCC 10798, Mueller-Hinton broth	16 h, 37 °C	> 8 µg/mL

Excerpt of the above:
SMILES	test	system	conditions	MIC
CC[C@H](C)[C@H](NC(=O)[C@H](CCCCN)NC(=O)[C@H](CC(N)=O)NC(=O)[C@H](Cc1c[nH]c2ccccc12)NC(=O)[C@H](Cc1ccccc1)NC(=O)[C@H](CCCCN)NC(=O)[C@H](CCCCNC(=N)N)NC(=O)[C@H](CC(C)C)NC(=O)[C@H](Cc1c[nH]c2ccccc12)NC(=O)[C@H](CCCCN)NC(=O)[C@H](CCCCNC(=N)N)NC(=O)[C@H](CC(C)C)NC(=O)CNC(C)=O)C(=O)N[C@@H](CCCCN)C(=O)N[C@@H](CCCCNC(=N)N)C(N)=O	broth microdilution	ATCC 25922		3.12 µM
CCCCCCCCCCCC[S+]([O-])CC1OC(OC2C(N)CC(N)C(OC3OC(CN)C(O)CC3N)C2O)C(O)C(N)C1O (mixture of isomers)		TolC, strain R		2.3 µg/mL
CC(=O)OCc1cc(-c2nc3ccccc3n(-c3ccc([N+](=O)[O-])cc3[N+](=O)[O-])c2=O)nn1-c1ccccc1	microbial growth	MDR		64.5 µg/mL
